Results from different studies.
Protocols differ between the studies behind these lines. Several values in a cell are separate wells, animals, samples, runs or records. ± marks the error that the study gave.
Sequence of UniProt P06873 (whole entry, looked up): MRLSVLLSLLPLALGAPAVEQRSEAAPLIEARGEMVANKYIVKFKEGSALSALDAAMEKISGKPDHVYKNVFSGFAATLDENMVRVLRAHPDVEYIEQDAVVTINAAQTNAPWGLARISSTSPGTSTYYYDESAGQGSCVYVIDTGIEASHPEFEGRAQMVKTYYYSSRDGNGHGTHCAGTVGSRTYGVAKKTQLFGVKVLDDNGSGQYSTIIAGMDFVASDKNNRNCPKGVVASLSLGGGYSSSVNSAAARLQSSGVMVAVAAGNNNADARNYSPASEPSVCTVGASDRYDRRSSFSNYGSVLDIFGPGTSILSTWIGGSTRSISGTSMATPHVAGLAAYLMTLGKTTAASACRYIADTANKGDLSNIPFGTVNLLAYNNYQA
Sequence of UniProt P08684 (whole entry, looked up): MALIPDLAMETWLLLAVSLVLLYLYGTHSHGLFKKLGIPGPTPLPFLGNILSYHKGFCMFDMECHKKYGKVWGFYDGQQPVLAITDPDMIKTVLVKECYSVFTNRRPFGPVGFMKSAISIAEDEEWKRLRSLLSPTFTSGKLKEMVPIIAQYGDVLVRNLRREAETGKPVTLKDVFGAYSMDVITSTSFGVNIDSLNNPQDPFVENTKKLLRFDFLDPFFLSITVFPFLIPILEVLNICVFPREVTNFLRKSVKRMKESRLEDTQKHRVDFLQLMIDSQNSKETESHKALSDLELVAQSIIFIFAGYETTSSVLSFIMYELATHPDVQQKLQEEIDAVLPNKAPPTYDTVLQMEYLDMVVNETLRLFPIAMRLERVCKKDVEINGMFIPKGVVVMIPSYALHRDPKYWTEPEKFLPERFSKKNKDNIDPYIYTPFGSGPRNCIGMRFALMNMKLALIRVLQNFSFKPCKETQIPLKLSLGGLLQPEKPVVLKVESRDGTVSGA
Sequence of UniProt Q16891 (whole entry, looked up): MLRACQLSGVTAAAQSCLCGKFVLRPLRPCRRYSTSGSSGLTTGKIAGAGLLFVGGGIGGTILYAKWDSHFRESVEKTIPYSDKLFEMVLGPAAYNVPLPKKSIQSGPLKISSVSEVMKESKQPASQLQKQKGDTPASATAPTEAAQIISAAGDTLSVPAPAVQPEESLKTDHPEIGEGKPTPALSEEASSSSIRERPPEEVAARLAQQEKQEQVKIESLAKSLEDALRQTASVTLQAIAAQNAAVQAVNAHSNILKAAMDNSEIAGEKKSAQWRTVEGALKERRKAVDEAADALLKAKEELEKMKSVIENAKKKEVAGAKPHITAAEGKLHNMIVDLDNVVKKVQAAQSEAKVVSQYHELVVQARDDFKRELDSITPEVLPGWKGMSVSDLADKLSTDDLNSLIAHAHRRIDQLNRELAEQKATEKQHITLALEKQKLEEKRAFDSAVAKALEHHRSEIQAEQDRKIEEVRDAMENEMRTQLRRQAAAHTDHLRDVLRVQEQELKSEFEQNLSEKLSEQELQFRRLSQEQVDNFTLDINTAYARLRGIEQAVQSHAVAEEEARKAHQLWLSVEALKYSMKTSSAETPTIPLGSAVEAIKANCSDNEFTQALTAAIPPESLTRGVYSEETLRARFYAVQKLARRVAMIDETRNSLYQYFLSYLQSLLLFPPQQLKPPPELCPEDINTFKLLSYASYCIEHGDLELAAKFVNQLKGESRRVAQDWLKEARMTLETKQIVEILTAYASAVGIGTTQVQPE
Sequence of UniProt Q9H4B4 (whole entry, looked up): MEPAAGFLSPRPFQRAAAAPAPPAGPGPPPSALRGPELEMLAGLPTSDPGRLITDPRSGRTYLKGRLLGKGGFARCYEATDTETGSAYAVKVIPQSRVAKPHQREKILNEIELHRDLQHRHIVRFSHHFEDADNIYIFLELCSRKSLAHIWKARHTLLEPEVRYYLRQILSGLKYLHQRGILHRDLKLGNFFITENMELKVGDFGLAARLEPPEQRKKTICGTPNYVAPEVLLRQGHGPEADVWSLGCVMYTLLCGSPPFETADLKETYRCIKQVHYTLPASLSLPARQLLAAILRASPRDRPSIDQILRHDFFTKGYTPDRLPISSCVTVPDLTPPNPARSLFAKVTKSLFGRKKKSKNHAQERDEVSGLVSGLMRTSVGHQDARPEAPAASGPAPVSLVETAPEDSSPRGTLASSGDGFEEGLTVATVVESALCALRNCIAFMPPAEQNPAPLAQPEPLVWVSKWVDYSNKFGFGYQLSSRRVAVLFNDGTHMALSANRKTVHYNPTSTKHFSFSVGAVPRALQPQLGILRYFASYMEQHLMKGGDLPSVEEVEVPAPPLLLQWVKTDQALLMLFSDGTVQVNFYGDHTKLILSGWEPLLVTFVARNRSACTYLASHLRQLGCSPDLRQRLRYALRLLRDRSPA

CC[C@H](C)[C@H](NC(=O)[C@H](Cc1ccccc1)NC(=O)[C@H](CCC(=O)O)NC(=O)[C@H](CCCNC(=N)N)NC(=O)[C@H](C)NC(=O)[C@H](C)NC(=O)[C@H](CCC(N)=O)NC(=O)[C@H](CCC(=O)O)NC(=O)[C@H](CCC(=O)O)NC(=O)[C@H](CC(C)C)NC(=O)[C@H](Cc1ccc(O)cc1)NC(=O)[C@H](CO)NC(=O)[C@H](CO)NC(=O)[C@@H](NC(=O)[C@H](CC(=O)O)NC(=O)[C@H](CO)NC(=O)[C@@H](NC(=O)[C@H](Cc1ccccc1)NC(=O)[C@@H](NC(=O)CNC(=O)[C@H](CCC(=O)O)NC(=O)[C@H](C)NC(=O)CCc1c[nH]cn1)[C@@H](C)O)[C@@H](C)O)C(C)C)C(=O)N[C@@H](C)C(=O)N[C@@H](Cc1c[nH]c2ccccc12)C(=O)N[C@@H](CC(C)C)C(=O)N[C@H](C(=O)N[C@@H](CCCNC(=N)N)C(=O)NCC(=O)N[C@@H](CCCNC(=N)N)C(=O)N[C@@H](CCCCNC(=O)COCCOCCNC(=O)COCCOCCNC(=O)CC[C@H](NC(=O)CCCCCCCCCCCCCCCCC(=O)O)C(=O)O)C(=O)NCC(=O)NCC(=O)N[C@@H](CO)C(=O)N[C@@H](CCCCNc1c(NCCCCCN(O)C(=O)CCC(=O)NCCCCCN(O)C(=O)CCC(=O)NCCCCCN(O)C(C)=O)c(=O)c1=O)C(=O)O)C(C)C [zirconium-89 labelled] — tissue uptake (rat, spleen; sc, 3 nmol/kg, 24 h, ex vivo): 0.27 %ID/g
Nc1ncnc2c([C@@H]3N[C@H](CO)[C@@H](O)[C@H]3O)c[nH]c12 — cell number (HeLa; 200 µM): 2250 and 3260
O=[N+]([O-])c1ccc(N2CCN(CCC(O)c3ccc(F)cc3)CC2)c(C(F)(F)F)c1 (stereo not shown) — survival (Salmonella typhimurium; SOS/umu test; TA1535/pSK1002; 0.002 mg/mL, 4 h, with S9, lower range): 100%
CO[C@H]1/C=C/O[C@@]2(C)Oc3c(C)c(O)c4c(O)c(c(/C=N/N5CCN(C6CCCC6)CC5)c(O)c4c3C2=O)NC(=O)/C(C)=C\C=C\[C@H](C)[C@H](O)[C@@H](C)[C@@H](O)[C@@H](C)[C@H](OC(C)=O)[C@@H]1C — CC50 (Aedes albopictus cells): 145 µM
Oc1ccc(C(c2ccc(O)cc2)(C(F)(F)F)C(F)(F)F)cc1 — early apoptotic cells (HepG2 spheroids, dissociated; annexin V-FITC/PI flow cytometry; 1 µM, 96 h): 9.65 ± 1.25%
CN1CC[C@@H](c2c(O)cc(O)c3c(=O)cc(-c4ccc(C(F)(F)F)cc4Cl)oc23)[C@@H]1CO — patients with adverse event (measured: Dyspnea; B-cell malignancies; oral, 200 mg, intermittent dosing): 0%
COc1ccc(N2C(=O)N(c3c(C)cccc3Cl)Cc3cnc(Nc4ccc(C5CCN(C)CC5)cc4OC)nc32)nc1 — inhibition (PLK3 (Homo sapiens, UniProt Q9H4B4); kinase activity; 0.5 µM): 1.27%
COC(=O)[C@@H](NC(=O)c1nn(Cc2ccc(F)cc2)c2ccccc12)C(C)(C)C — lowest dose producing hypothermia (central CB1 receptor; mouse; intraperitoneal): 0.03 mg/kg
CC1(C)[C@H](C=C(Cl)Cl)[C@H]1C(=O)OCc1cccc(Oc2ccccc2)c1 — relative enzyme contribution (human microsomal CES2; IVIVE from expressed enzymes; human, 5 years old, expressed human CES2; 0.1 µM; reference: total hepatic CLint in vivo): 6.95%
CCCC[C@H](NC(C)=O)C(=O)N[C@@H](CO)C(=O)N[C@H](C(=O)N1CCC[C@H]1C(=O)N[C@@H](C)C(=O)N[C@@H](CCCNC(=N)N)C(=O)N[C@@H](CCCNC(=N)N)C(=O)N[C@@H](CCCNC(=N)N)C(=O)N[C@@H](CC(C)C)C(=O)N[C@@H](CCCC)C(=O)N[C@@H](CCCNC(=N)N)C(=O)N[C@@H](CC(=O)O)C(=O)N[C@@H](Cc1ccccc1)C(=O)N[C@@H](CCCCN)C(=O)N[C@@H](CCCNC(=N)N)C(=O)N[C@@H](CC(C)C)C(=O)N[C@@H](CCC(N)=O)C(N)=O)[C@@H](C)O — remaining intact peptide (Proteinase K (PROK, Engyodontium album, UniProt P06873); proteolytic stability, LC-MS; 25 µM, 41.0 min, pH 7.4): 22.7%
CC[C@H](C)[C@@H]1NC(=O)[C@@H]2CCCN2C(=O)[C@H](CC(C)C)NC(=O)[C@H](CC(C)C)NC(=O)CNC(=O)[C@@H](NC(=O)[C@@H](NC(=O)[C@H](CC(=O)O)NC(=O)CNC(=O)[C@@H](NC(=O)[C@H](C)NC(=O)CNC(=O)[C@H](CCCCN)NC(=O)[C@H](CC(C)C)NC(=O)[C@H](CC(C)C)NC(=O)[C@H](CCCCN)NC(=O)CNC(=O)[C@@H](NC(=O)[C@@H](N)CC(C)C)C(C)C)C(C)C)C(C)C)CSSC[C@@H](C(=O)O)NC1=O — log2 fold change (RNA-seq, measured: Rab43; mouse, traumatic brain injury model, frontal cortex and hippocampus; dose not given; reference: TBI alone): -1.1
C[C@H]1CN(c2n[nH]c3nc(N[C@H]4CC[C@H](NS(=O)(=O)CCC(F)(F)F)CC4)ncc23)CCO1 — remaining binding (MICOS complex subunit MIC60 (Homo sapiens, UniProt Q16891); Kinobeads competition, measured: IMMT; 0.8 µM, unit not given; reference: vehicle): 1.1
Cc1ncc2n1-c1ccc(Cl)cc1C(c1ccccc1F)=NC2 — AUC(0-inf) (Cytochrome P450 3A4 (CYP3A4, Homo sapiens, UniProt P08684); human, plasma; oral, 2 mg, day 1, alone, arithmetic mean): 22.1 ng·h/mL
COc1cc2c(Oc3ccc4[nH]c(C)cc4c3F)ccnc2cc1OCC1(N)CC1 — grade 3 Hyperthyroidism (paediatric recurrent refractory sarcoma; 12 mg): 0%
Fc1ccc(C2=CCNCC2)cc1 — induction factor (Salmonella typhimurium; genotoxicity, SOS/umu test; TA1535/pSK1002; 1 mg/mL, 4 h, without S9, full range): 1.4
OCc1ncc2n1-c1ccc(Cl)cc1C(c1ccccc1F)=NC2 — AUC(0-t) (CYP3A4; substrate; human, plasma; oral, 2 mg midazolam, day 14, cocktail with binimetinib and encorafenib): 142 ng·h/mL
C=C1CC[C@@]2(O)[C@H]3Cc4ccc(O)c5c4[C@@]2(CCN3CC2CC2)[C@H]1O5 — intrinsic clearance (H+/organic cation antiporter; cell uptake; hCMEC/D3): 8.6 µL/min/mg protein
COc1cc(Nc2ncc(F)c(Nc3ccc4c(n3)NC(=O)C(C)(C)O4)n2)cc(OC)c1OC — IC50 (nicotinic acetylcholine receptor; binding): > 10 µM
Fc1ccc([C@@H]2CCNC[C@H]2COc2ccc3c(c2)OCO3)cc1 — IC50 (Plasmodium falciparum; HB3): 6.31 µM
COc1cccc(-c2n[nH]c(SCc3ccccn3)n2)c1OC — revertant colonies per plate (Salmonella typhimurium; Ames test, plate incorporation; TA1537; 0.13 mg/plate, without S9): 11
COc1ccc(CCN(C)CCCC(C#N)(c2ccc(OC)c(OC)c2)C(C)C)cc1OC (stereo not shown) — IC50 (Plasmodium falciparum; W2): 1 µM
CO[C@H]1C[C@@H]2CC[C@@H](C)[C@@](O)(O2)C(=O)C(=O)N2CCCC[C@H]2C(=O)O[C@H]([C@H](C)C[C@@H]2CC[C@@H](OC(=O)NCCOCCOCCOCCOCCOCCOCCOCCOCCC(=O)N3CCc4cc(Cn5nc(-c6ccc7oc(N)nc7c6)c6c(N)ncnc65)ccc4C3)[C@H](OC)C2)C[C@@H](O)[C@H](C)/C=C(\C)[C@@H](O)[C@@H](OC)C(=O)[C@H](C)C[C@H](C)/C=C/C=C/C=C/1C — incidence of Rash TRAE (patients with advanced solid tumours; intravenous, 1.6 mg/3 mg weekly, any grade): 0%
O=c1ccc2ccccc2o1 — point of departure (HepaRG 3D spheroids; glutathione content; 168 h, high-content imaging): 576 µM
OC(CCN1CC=C(c2ccc(F)cc2)CC1)c1ccc(F)c2ccccc12 (stereo not shown) — survival (Salmonella typhimurium; SOS/umu test; TA1535/pSK1002; 0.004 mg/mL, 4 h, without S9, full range): 95.2%
COc1ccc(-n2nc(C(C)=O)s/c2=N\N=C(/C)c2ccc(NC(C)=O)cc2)cc1 — viability (WI-38; 2.5 µM, 24 (unit not given)): 3.18%
CC(C)[C@@H]1NC(=O)[C@H](Cc2ccccc2)NC(=O)[C@@H]2NC(=O)[C@H](Cc3ccccc3)NC(=O)[C@@H]3CCCN3C(=O)CNC(=O)[C@H](Cc3ccccc3)NC(=O)[C@@H]3CNCCCC[C@@H](C(=O)O)NC(=O)[C@@H]4NC(=O)[C@H](CC(N)=O)NC(=O)CNC(=O)[C@H]([C@@H](O)C(=O)O)NC(=O)[C@H](CSC[C@@H](NC(=O)[C@H](CCC(N)=O)NC(=O)[C@H](CCCCNC(=O)c5ccc(NN)nc5)NC(=O)[C@@H](N)CS[C@H]4C)C(=O)N[C@@H](CS[C@H]2C)C(=O)N3)NC1=O [technetium-99m labelled] — tissue uptake (rat, saline control, blood; intravenous, 2 h after tracer, tracer 24 h after reperfusion): 0.12 ± 0.03 %ID/g
[Cl-].[Cl-].[Pt+2].[Ru+2].c1ccc(-c2nc3cc4ccccc4cc3nc2-c2ccccn2)nc1.c1cnc2c(c1)ccc1cccnc12.c1cnc2c(c1)ccc1cccnc12 — survival rate (Danio rerio; embryos; 75 µM, 72 h): 70 ± 2.8%
C[C@@H](O)[C@@H](CO)NC(=O)[C@@H](CCCNC(=N)N)NC(=O)[C@@H]1CCCN1C(=O)[C@@H]1CSSC[C@H](NC(=O)[C@H](Cc2ccccc2)NC(=O)CN2CCN(CC(=O)O)CCN(CC(=O)O)CCN(CC(=O)O)CC2)C(=O)N[C@@H](Cc2ccc(O)cc2)C(=O)N[C@@H](Cc2ccccc2)C(=O)N[C@@H](CCC(N)=O)C(=O)N[C@@H](CC(N)=O)C(=O)N1 [gallium-68 labelled] — tissue uptake (Wistar rat, bone; intravenous, 8 MBq, 120 min, group mean): 0.02 %ID/g
CC(=O)N1CCC(C(=O)N2CCN3C(=O)c4cc(-c5ccccc5)ccc4NC(=O)C3C2)CC1 (stereo not shown) — revertant fold increase (Salmonella typhimurium; TA100; 1.58 µg/plate, with: without S9; reference: vehicle control): 1.1
Cc1cc(C(=O)NC(C)(C)COc2cccc3c2C(N)=NS(=O)(=O)N3)cc(C)n1 — revertant ratio (Salmonella typhimurium; Ames test, initial; TA98; 5000 µg/plate, with: rat liver S9; reference: solvent control): 1.4
CC(C)=CC1C(C(=O)OC(C#N)c2cccc(Oc3ccccc3)c2)C1(C)C (stereo not shown) — relative enzyme contribution (human cytosolic CES1; IVIVE from expressed enzymes; human, 5 years old; reference: total hepatic CLint in vivo): 33%

Some of these lines once more:
[Cl-].[Cl-].[Pt+2].[Ru+2].c1ccc(-c2nc3cc4ccccc4cc3nc2-c2ccccn2)nc1.c1cnc2c(c1)ccc1cccnc12.c1cnc2c(c1)ccc1cccnc12 — survival rate (Danio rerio; embryos; 75 µM, 72 h): 70 ± 2.8%
CN1CC[C@@H](c2c(O)cc(O)c3c(=O)cc(-c4ccc(C(F)(F)F)cc4Cl)oc23)[C@@H]1CO — patients with adverse event (measured: Dyspnea; B-cell malignancies; oral, 200 mg, intermittent dosing): 0%
